{"data": "Measurements of several laboratories", "organism": "Trypanosoma cruzi", "note": "Protocols differ between the studies behind these lines."}
{"SMILES": "Cl.Clc1cccc(Nc2nc(N3CCOCC3)c3ccccc3n2)c1", "assay": "mRNA translation, measured: Renilla luciferase reporter", "system": "cell-free translation extract", "conditions": "40 µM, 2 h", "quantity": "inhibition", "result": "55.1%"}
{"SMILES": "Cc1cc(C)c(C#N)c(SCc2ccccc2)n1", "system": "MRC5, Tulahuen, beta-galactosidase", "conditions": "intracellular amastigotes", "quantity": "EC50", "result": "36.8 µM"}
{"SMILES": "CC1=C(/C=C/C(C)=C/C=C/C(C)=C/C=C/C=C(C)/C=C/C=C(C)/C=C/C2=C(C)CCCC2(C)C)C(C)(C)CCC1", "system": "Vero, Tulahuen β-galactosidase", "how to read": "relative to: Vero CC50 over T. cruzi IC50", "quantity": "selectivity index", "result": 2.8}
{"SMILES": "Cc1cc(C)c(C#N)c(SCC(N)c2ccccc2)n1 (stereo not shown)", "system": "MRC5, Tulahuen, beta-galactosidase", "conditions": "intracellular amastigotes", "quantity": "EC50", "result": "19.5 µM"}
{"SMILES": "CSC1=NCc2c([nH]c3ccccc23)S1", "assay": "parasite growth, [3H]uracil incorporation", "system": "rat L6E9 myoblasts, amastigote", "conditions": "72 h", "quantity": "IC50", "result": "11.3 µM"}
{"SMILES": "COc1ccccc1Nc1nc(NCC2CCCO2)c2ccccc2n1 (stereo not shown)", "assay": "mRNA translation, measured: Renilla luciferase reporter", "system": "cell-free translation extract", "conditions": "40 µM, 2 h", "quantity": "inhibition", "result": "59.1%"}
{"SMILES": "CC(=O)Oc1ccccc1C(=O)CSc1nc(C)cc(C)c1C#N", "system": "MRC5, Tulahuen, beta-galactosidase", "conditions": "intracellular amastigotes", "quantity": "EC50", "result": "1.49 µM"}
{"SMILES": "OC(Cn1cncn1)(Cn1cncn1)c1ccc(F)cc1F", "system": "CL Brener", "how to read": "relative to: Vero IC50 over parasite IC50", "quantity": "selectivity ratio", "result": 7.3}
{"SMILES": "Cc1cc(C)c(C#N)c(SC(C)C(=O)c2ccccc2)n1 (stereo not shown)", "system": "MRC5, Tulahuen, beta-galactosidase", "conditions": "intracellular amastigotes", "quantity": "EC50", "result": "33 µM"}
{"SMILES": "Cl.c1ccc(CNc2nc(NCC3CCCO3)c3ccccc3n2)nc1 (stereo not shown)", "assay": "mRNA translation, measured: Renilla luciferase reporter", "system": "cell-free translation extract", "conditions": "40 µM, 2 h", "quantity": "inhibition", "result": "46.9%"}
{"SMILES": "Cc1cc(C)c(C#N)c(SC2COc3ccccc3C2=O)n1 (stereo not shown)", "system": "MRC5, Tulahuen, beta-galactosidase", "conditions": "intracellular amastigotes", "quantity": "EC50", "result": "4.83 µM"}
{"SMILES": "CC[C@]1(O)C[C@@H]2CN(CCc3c([nH]c4ccccc34)[C@@](C(=O)OC)(c3cc4c(cc3OC)N(C)[C@H]3[C@@](O)(C(=O)OC)[C@H](OC(C)=O)[C@]5(CC)C=CCN6CC[C@]43[C@@H]65)C2)C1", "system": "Vero, Tulahuen β-galactosidase", "how to read": "relative to: Vero CC50 over T. cruzi IC50", "quantity": "selectivity index", "result": "< 2.1"}
{"SMILES": "Cc1ccc(Cn2cc(C(=O)NN)c(=O)c3cc(Oc4ccccc4)ccc32)cc1", "assay": "parasite growth", "system": "MRC-5 host cells", "quantity": "EC50", "result": "inactive"}
{"SMILES": "CC[C@@H]1/C=C(\\C)C[C@H](C)C[C@H](OC)[C@H]2O[C@@](O)(C(=O)C(=O)N3CCCC[C@H]3C(=O)O[C@H](/C(C)=C/[C@@H]3CC[C@H](Cl)[C@H](OC)C3)[C@H](C)[C@@H](O)CC1=O)[C@H](C)C[C@@H]2OC", "system": "Vero, Tulahuen β-galactosidase", "how to read": "relative to: Vero CC50 over T. cruzi IC50", "quantity": "selectivity index", "result": 160}
{"SMILES": "c1ccc2c(NCC3CCCO3)ncnc2c1 (stereo not shown)", "assay": "mRNA translation, measured: Renilla luciferase reporter", "system": "cell-free translation extract", "conditions": "40 µM, 2 h", "quantity": "inhibition", "result": "34.9%"}
{"SMILES": "CC(C)(C)[C@@H]1NC(=O)O[C@@H]2CCC[C@H]2OC/C=C/C(F)(F)c2nc3ccccc3nc2O[C@@H]2C[C@@H](C(=O)N[C@]3(C(=O)NS(=O)(=O)C4(C)CC4)C[C@H]3C(F)F)N(C2)C1=O", "system": "Vero, Tulahuen β-galactosidase", "how to read": "relative to: Vero CC50 over T. cruzi IC50", "quantity": "selectivity index", "result": 0.4}
{"SMILES": "O=C(Cn1ccnc1[N+](=O)[O-])NCc1ccccc1", "assay": "trypomastigote release", "system": "CHO, Y GFP-expressing", "conditions": "6 d post infection, 0.5% heat-inactivated FBS, low ROS", "quantity": "IC50", "result": "1.35 µM"}
{"SMILES": "Cl.OCCNc1nc(NCC2CCCO2)c2ccccc2n1 (stereo not shown)", "assay": "mRNA translation, measured: Renilla luciferase reporter", "system": "cell-free translation extract", "conditions": "40 µM, 2 h", "quantity": "inhibition", "result": "38.2%"}
{"SMILES": "CO[C@H]1/C=C/O[C@@]2(C)Oc3c(C)c(O)c4c(O)c(c(/C=N/N5CCN(C6CCCC6)CC5)c(O)c4c3C2=O)NC(=O)/C(C)=C\\C=C\\[C@H](C)[C@H](O)[C@@H](C)[C@@H](O)[C@@H](C)[C@H](OC(C)=O)[C@@H]1C", "system": "Vero, Tulahuen β-galactosidase", "how to read": "relative to: Vero CC50 over T. cruzi IC50", "quantity": "selectivity index", "result": 3.6}
{"note": "For quick reference, copied from above:"}
{"SMILES": "Cc1cc(C)c(C#N)c(SC(C)C(=O)c2ccccc2)n1 (stereo not shown)", "system": "MRC5, Tulahuen, beta-galactosidase", "conditions": "intracellular amastigotes", "quantity": "EC50", "result": "33 µM"}
{"SMILES": "Cc1ccc(Cn2cc(C(=O)NN)c(=O)c3cc(Oc4ccccc4)ccc32)cc1", "assay": "parasite growth", "system": "MRC-5 host cells", "quantity": "EC50", "result": "inactive"}
